Results pooled from the literature.
Lines come from different studies, so protocols differ. Values joined by “and” are separate records of one study, mostly repeats; a detail may differ.
HDAC3: Histone deacetylase 3 (HDAC3, Homo sapiens, UniProt O15379)
Sequence of UniProt O15379 (whole entry, looked up): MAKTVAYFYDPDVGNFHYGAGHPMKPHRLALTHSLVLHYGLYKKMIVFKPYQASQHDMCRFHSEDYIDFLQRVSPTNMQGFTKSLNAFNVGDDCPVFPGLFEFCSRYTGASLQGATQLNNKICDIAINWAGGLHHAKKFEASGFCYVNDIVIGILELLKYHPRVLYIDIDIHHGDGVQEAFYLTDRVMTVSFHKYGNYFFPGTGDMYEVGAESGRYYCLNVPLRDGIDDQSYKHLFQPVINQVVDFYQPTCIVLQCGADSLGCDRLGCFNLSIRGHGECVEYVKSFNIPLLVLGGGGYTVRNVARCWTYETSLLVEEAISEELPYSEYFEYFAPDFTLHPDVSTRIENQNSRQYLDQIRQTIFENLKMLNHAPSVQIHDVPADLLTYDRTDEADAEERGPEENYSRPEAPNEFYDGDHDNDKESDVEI
Neutral cholesterol ester hydrolase 1: Neutral cholesterol ester hydrolase 1 (Mus musculus, UniProt Q8BLF1)
Sequence of UniProt Q8BLF1 (whole entry, looked up): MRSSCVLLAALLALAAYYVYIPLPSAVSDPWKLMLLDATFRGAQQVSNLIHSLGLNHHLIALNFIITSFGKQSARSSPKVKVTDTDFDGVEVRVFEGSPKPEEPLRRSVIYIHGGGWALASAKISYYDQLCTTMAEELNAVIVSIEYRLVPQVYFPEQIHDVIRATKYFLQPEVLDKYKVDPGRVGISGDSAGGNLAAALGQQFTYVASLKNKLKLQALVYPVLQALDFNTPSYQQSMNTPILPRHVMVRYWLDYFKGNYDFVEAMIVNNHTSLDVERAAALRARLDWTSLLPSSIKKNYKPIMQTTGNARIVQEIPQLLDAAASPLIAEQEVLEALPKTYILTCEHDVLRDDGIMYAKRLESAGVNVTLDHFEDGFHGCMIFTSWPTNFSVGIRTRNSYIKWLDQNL
PARP2: Poly [ADP-ribose] polymerase 2 (PARP2, Homo sapiens, UniProt Q9UGN5)
Sequence of UniProt Q9UGN5 (whole entry, looked up): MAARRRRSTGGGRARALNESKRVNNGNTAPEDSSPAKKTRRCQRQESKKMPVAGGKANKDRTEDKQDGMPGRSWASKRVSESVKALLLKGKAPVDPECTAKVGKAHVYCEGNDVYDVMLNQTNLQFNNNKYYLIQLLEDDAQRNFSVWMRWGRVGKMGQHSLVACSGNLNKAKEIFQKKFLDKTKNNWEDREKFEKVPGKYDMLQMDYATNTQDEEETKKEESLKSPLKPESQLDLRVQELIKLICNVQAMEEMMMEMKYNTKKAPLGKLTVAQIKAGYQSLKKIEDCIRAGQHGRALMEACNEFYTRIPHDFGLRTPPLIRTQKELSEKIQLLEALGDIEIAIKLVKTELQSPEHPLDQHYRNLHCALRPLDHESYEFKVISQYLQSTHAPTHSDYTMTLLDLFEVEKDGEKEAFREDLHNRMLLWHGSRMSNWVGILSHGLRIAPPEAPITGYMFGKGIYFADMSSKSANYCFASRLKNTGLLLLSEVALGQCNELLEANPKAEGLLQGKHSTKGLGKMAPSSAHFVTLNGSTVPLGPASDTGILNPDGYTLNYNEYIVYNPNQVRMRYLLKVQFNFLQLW
PLAT: Tissue-type plasminogen activator (PLAT, Homo sapiens, UniProt P00750)
Sequence of UniProt P00750 (whole entry, looked up): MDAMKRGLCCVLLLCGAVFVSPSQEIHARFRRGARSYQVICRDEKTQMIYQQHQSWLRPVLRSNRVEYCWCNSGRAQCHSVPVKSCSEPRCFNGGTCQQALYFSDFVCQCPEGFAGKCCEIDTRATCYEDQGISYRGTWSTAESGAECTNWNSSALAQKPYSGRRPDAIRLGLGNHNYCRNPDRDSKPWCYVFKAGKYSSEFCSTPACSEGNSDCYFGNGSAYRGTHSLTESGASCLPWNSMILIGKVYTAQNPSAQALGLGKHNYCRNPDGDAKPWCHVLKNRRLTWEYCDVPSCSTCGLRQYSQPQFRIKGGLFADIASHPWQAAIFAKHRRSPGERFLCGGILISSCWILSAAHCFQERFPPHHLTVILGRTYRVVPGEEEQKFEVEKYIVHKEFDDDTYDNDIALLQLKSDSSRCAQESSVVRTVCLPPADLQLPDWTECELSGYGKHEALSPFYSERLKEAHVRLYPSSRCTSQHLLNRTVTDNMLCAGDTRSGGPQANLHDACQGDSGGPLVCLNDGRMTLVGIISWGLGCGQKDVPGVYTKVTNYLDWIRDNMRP
Breakpoint cluster region protein GAP domain: Breakpoint cluster region protein, GAP domain (Homo sapiens, UniProt P11274)
Sequence of UniProt P11274 (whole entry, looked up): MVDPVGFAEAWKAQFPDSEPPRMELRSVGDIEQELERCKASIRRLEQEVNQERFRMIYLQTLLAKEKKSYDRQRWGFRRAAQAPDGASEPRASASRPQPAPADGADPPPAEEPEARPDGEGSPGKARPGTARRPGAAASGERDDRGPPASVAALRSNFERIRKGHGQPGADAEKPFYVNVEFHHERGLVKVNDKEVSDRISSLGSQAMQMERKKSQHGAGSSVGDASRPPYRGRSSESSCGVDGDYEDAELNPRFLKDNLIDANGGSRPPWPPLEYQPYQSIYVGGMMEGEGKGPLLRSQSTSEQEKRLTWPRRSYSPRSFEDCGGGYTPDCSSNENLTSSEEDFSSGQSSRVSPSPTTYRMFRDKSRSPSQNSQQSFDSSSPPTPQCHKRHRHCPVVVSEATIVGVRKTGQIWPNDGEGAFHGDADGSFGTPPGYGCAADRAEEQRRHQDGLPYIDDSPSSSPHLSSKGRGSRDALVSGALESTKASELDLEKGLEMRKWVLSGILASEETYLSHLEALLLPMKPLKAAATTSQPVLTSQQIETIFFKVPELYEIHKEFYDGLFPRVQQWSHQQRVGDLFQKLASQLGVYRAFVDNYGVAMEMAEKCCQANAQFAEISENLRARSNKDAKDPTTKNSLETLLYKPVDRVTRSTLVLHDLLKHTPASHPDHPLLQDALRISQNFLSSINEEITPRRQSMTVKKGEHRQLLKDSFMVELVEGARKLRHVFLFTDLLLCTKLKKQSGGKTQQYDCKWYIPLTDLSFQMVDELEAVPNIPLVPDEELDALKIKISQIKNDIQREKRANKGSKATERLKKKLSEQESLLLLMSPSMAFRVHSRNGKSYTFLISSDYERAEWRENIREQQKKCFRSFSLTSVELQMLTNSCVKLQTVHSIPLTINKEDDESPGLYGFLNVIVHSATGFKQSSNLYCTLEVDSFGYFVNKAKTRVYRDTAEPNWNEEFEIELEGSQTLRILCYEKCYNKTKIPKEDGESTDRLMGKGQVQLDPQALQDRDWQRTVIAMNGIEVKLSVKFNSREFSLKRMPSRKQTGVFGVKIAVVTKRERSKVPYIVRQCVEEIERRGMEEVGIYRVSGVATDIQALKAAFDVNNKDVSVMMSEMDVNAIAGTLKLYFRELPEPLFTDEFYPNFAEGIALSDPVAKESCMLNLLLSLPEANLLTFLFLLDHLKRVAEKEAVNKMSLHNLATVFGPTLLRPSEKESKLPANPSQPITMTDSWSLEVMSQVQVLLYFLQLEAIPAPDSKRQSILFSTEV
PARP1: Poly [ADP-ribose] polymerase 1 (PARP1, Homo sapiens, UniProt P09874)
DRD4: D(4) dopamine receptor (DRD4, Homo sapiens, UniProt P21917)
Sequence of UniProt P21917 (whole entry, looked up): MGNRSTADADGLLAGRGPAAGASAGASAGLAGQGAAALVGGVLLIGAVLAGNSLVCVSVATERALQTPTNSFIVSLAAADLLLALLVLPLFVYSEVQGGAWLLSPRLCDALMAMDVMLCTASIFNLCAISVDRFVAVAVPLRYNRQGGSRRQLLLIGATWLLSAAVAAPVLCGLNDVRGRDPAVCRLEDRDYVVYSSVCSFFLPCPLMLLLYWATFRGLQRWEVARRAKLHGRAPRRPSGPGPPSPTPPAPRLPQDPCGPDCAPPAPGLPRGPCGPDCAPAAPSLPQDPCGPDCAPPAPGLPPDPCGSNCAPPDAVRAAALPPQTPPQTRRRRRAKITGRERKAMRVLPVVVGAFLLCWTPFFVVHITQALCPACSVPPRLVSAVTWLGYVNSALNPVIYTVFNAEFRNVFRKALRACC
Sequence of UniProt Q13148 (whole entry, looked up): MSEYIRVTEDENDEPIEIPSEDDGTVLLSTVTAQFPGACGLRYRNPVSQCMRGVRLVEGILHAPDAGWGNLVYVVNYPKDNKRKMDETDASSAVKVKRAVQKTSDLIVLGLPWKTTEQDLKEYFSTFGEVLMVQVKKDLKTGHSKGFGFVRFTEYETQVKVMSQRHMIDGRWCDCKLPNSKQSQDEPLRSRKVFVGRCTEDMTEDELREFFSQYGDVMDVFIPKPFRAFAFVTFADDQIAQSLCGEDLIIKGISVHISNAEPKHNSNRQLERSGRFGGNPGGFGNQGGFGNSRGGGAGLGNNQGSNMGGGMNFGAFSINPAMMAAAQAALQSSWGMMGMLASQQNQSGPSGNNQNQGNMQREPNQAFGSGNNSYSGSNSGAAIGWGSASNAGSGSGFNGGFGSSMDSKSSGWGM
Sequence of UniProt Q8VDG7 (whole entry, looked up): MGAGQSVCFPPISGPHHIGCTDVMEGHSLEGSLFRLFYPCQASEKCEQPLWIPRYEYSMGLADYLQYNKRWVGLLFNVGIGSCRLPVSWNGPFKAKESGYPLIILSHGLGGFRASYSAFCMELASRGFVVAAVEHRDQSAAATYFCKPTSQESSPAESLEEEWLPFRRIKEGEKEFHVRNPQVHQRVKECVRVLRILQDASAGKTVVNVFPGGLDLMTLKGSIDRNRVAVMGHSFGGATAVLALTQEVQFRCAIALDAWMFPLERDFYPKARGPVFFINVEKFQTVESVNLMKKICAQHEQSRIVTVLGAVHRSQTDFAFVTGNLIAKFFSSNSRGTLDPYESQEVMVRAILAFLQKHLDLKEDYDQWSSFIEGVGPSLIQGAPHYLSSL
Sequence of UniProt P07948 (whole entry, looked up): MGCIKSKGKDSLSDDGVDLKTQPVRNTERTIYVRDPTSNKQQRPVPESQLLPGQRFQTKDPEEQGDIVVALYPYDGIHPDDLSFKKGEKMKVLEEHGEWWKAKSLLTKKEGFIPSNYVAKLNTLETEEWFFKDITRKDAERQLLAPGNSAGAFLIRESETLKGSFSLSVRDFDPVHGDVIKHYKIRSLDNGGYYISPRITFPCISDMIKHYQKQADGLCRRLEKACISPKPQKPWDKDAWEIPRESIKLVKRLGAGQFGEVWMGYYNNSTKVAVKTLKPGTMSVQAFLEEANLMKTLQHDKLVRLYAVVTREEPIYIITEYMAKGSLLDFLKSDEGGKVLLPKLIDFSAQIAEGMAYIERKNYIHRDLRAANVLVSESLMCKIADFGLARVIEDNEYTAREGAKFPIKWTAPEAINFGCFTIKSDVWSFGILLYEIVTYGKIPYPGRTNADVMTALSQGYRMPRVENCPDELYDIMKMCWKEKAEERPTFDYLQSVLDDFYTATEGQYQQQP

SMILES	target	assay	system	setting	scale	inhibition
Cc1c(COc2cc(OCc3cccc(C#N)c3)c(CNCCO)cc2Cl)cccc1-c1cccc(OCCCCCCC(=O)NO)c1	HDAC3	enzyme activity, inhibitor		1 µM		96.1%
O=C(n1ccnn1)n1c2ccccc2c2ccccc21	Neutral cholesterol ester hydrolase 1	probe labeling, inhibitor, gel-based competitive ABPP	mouse T-cell proteome	1 µM, 30 min, 37 °C		< 50%
COc1cc(-n2cc3cc(F)cc(C(N)=O)c3n2)cc(Cl)c1C1CC(O)(CCO)Cc2ccccc21 (stereo not shown)	PARP2	enzyme activity, inhibitor		10 µM		1.56%
Cc1ccc(CNC(=O)[C@H](CCc2ccccc2)NC(=O)[C@H](CC(=O)NCC(C)(C)C)NC(=O)c2ccc(OCc3ccccc3)cc2)cc1	PLAT	enzyme activity, inhibitor		100 µM		13%
Cc1c(COc2cc(OCc3cccc(C#N)c3)c(CN3CCCC[C@H]3C(=O)O)cc2Cl)cccc1-c1cccc(OCc2ccc(/C=C/C(=O)NO)cc2)c1	HDAC3	enzyme activity, inhibitor		1 µM		3.14%
COc1ccc(C[C@H](NC(=O)Cc2cccc(Oc3ccccc3)c2)C(=O)N[C@@H](Cc2c[nH]c3ccccc23)C(=O)NCc2ccc(C)cc2)cc1OC	PLAT	enzyme activity, inhibitor		100 µM		16%
Cc1c(COc2cc(OCc3cccc(C#N)c3)c(CNC(C)(CO)CO)cc2Cl)cccc1-c1cccc(OCc2ccc(/C=C/C(=O)NO)cc2)c1	HDAC3	enzyme activity, inhibitor		1 µM		36.9%
O=C1CC(=O)N(c2ccccc2)N1c1ccccc1	Breakpoint cluster region protein GAP domain	GAP activity		10 µM, selectivity counter screen		-16.4%
C/C=C/C(=O)Nc1ccc2nc(NCCCCCN(C)C)nc(NCCCCCCN(C)C)c2c1	DNA (cytosine-5)-methyltransferase 1 (DNMT1, Homo sapiens, UniProt P26358)	enzyme activity, inhibitor, radiometric		50 µM		1%
O=C(CC1CC2CCC1C2)NCCNC(=O)Cn1c(=O)[nH]c(=O)c2ccccc21 (stereo not shown)	PARP2	enzyme activity, inhibitor		0.104 µM		100%
N#Cc1c(Nc2ccccc2C(F)(F)F)s[nH]c1=O	PARP1	enzyme activity, inhibitor		10 µM		41%
CCCC(=O)O[C@@]1(C)CN(Cc2ccccc2)[C@H]2C[C@@H]1CC(=O)[C@@H]2C	Delta-type opioid receptor (Oprd1, Rattus norvegicus, UniProt P33533)	ligand displacement, radioligand		1 µM		16%
Cc1ccc(CNC(=O)C(CCc2ccccc2)NC(=O)C(NC(=O)Cc2cccc(Oc3ccccc3)c2)C(C)O)cc1 (stereo not shown)	PLAT	enzyme activity, inhibitor		100 µM		19%
CCCCCCCCCCCCCCN(O)C(=O)CCCCC[C@@H]1NC(=O)[C@H]([C@@H](C)CC)NC(=O)[C@H](Cc2ccccc2C(F)(F)F)NC(=O)CCSCc2cccc(n2)CSCCCNC1=O	HDAC3	enzyme activity, inhibitor, fluorogenic		30 µM		45%
COc1ncc2nc(C)n(Cc3ncc(S(N)(=O)=O)cc3F)c2c1-c1ccccc1	Cannabinoid receptor 1 (CNR1, Homo sapiens, UniProt P21554)	antagonist, cell-based		10 µM		-0.807%
O=C(N1CCOCC1)n1ccnn1	Neutral cholesterol ester hydrolase 1	probe labeling, inhibitor, gel-based competitive ABPP	mouse T-cell proteome	1 µM, 30 min, 37 °C		< 50%
C=CC(=O)N1Cc2nc(-c3cc(-c4cc(Cl)cnc4Cl)c(F)cc3F)n(-c3ccncn3)c2C1	Sphingosine kinase 1 (SPHK1, Homo sapiens, UniProt Q9NYA1)	cell-free assay, inhibitor		1 µM		-5.8%
Brc1ccccc1-c1nnc(CSc2nnnn2-c2ccccc2)o1	Alpha-1A adrenergic receptor (ADRA1A, Homo sapiens, UniProt P35348)	ligand displacement, radioligand		10 µM		10%
C[Si](C)(C)C[C@H](CN)CC(=O)O	Beta-1 adrenergic receptor (ADRB1, Homo sapiens, UniProt P08588)	cell-free assay, inhibitor		250 µM		-13%
Cc1cccc(O[C@H]2CCC[C@@H](C(C)CNCc3ccncc3)C2)c1 (relative stereo)	Tyrosine-protein kinase Lyn, isoform A (LYN, Homo sapiens, UniProt P07948)	kinome profiling		1 µM		2%

SMILES	target	assay	system	setting	scale	inhibition
CCOC(=O)C(Sc1nnc(-c2c[nH]c3ccccc23)n1C)C(=O)OCC	Breakpoint cluster region protein GAP domain	GAP activity		10 µM, selectivity counter screen		41.3%
CCn1cc(-c2cccc(C(F)(F)F)c2)c2sc(C(=N)NC3CCS(=O)(=O)CC3)cc2c1=O	Bromodomain-containing protein 7 (BRD7, Homo sapiens, UniProt Q9NPI1)			1 µM		96.3%
C=CC(=O)Nc1cccc(-c2cnc3[nH]cc(C(=O)NC(C)(C)C)c3n2)c1	Phosphatidylinositol 4,5-bisphosphate 3-kinase catalytic subunit beta isoform (PIK3CB, Homo sapiens, UniProt P42338)	enzyme activity, inhibitor		0.1 µM		4%
Cn1sc(Nc2c(Cl)ccc3ncccc23)c(C#N)c1=O	PARP1	enzyme activity, inhibitor		10 µM		8%
CCN(CC)C(=O)n1ccnn1	Platelet-activating factor acetylhydrolase 2, cytoplasmic (Mus musculus, UniProt Q8VDG7)	serine hydrolase activity, inhibitor, competitive gel-based ABPP	mouse T-cell proteome	1 µM, 30 min, 37 °C		< 50%
FC1(F)CCN(Cc2cn3ccccc3n2)CC1COc1cccc(Cl)n1 (stereo not shown)	DRD4	ligand displacement, radioligand		10 µM		48%
O=C(N(c1ccccc1)c1ccccc1)n1ccnn1	Acyl-protein thioesterase 1 (Lypla1, Mus musculus, UniProt P97823)			1 µM		< 50%
O=C1c2sc(-c3ccc(N4CCC(CO)CC4)nc3F)nc2CCN1c1cccnc1	AMPA receptor	radioligand binding		1 µM, with: agonist radioligand		0%
O=C(CCCc1ccc2c(c1)OCCO2)NCCNC(=O)Cn1c(=O)[nH]c(=O)c2ccccc21	PARP2	enzyme activity, inhibitor		50 nM		60%
O=C(O)C1Nc2ccc(Br)cc2C2C=CCC12 (stereo not shown)	Breakpoint cluster region protein GAP domain	GAP activity		10 µM, selectivity counter screen		74.2%
CCn1cc(C(=O)O)c(=O)c2c(N)c(F)c(NC3CCCCC3)cc21	Cyclin-dependent kinase 17, with p35 (CDK17, Homo sapiens, UniProt Q00537)	kinase activity		0.1 µM, with: ATP at Km		-3.8%
O=C1c2sc(-c3ccc(N4CCC(F)C4)nc3F)nc2CCN1c1cccnc1 (stereo not shown)	TAR DNA-binding protein 43, aggregated (TARDBP, Homo sapiens, UniProt Q13148)	radioligand binding	homogenate, FTLD-TDP, type A	62.5 nM, with: [3H]ACI-19626		16.5% and 32.3%
CC1Cc2ccccc2N1C(=O)CN1CCN(Cc2ccccc2)CC1 (stereo not shown)	DRD4	radioligand binding		concentration not given, with: [3H]N-methylspiperone		99.4%
Cc1c(OS(=O)(=O)Oc2ccc3ccccc3c2)cccc1C(=O)NO	Histone deacetylase 8 (HDAC8, Homo sapiens, UniProt Q9BY41)	enzyme activity, inhibitor, fluorescence		10 µM		48%
CCCCCCCCCCCCCCCC(=O)N[C@@H](CCCCN)C(=O)N[C@@H](CCCCN)C(=O)N[C@@H](CO)C(=O)N[C@@H](CCCNC(=N)N)C(=O)N[C@@H](C)C(=O)N[C@@H](CC(C)C)C(=O)N[C@@H](Cc1ccccc1)C(N)=O	Proteinase-activated receptor 1 (F2R, Homo sapiens, UniProt P25116)	platelet aggregation, antagonist, light transmittance aggregometry	human, platelet-rich plasma ex vivo	0.3 mg/kg, 30 min, with: SFLLRN 20 µM	relative to: baseline	8%
C=CC(=O)Nc1cc(-c2nn(C3CCN(CCNC(=O)[C@H](C)CCC45CC6CC(CC(C6)C4)C5)CC3)c3ncnc(N)c23)ccc1Oc1ccccc1	Kinase suppressor of Ras 1 (KSR1, Homo sapiens, UniProt Q8IVT5)	inhibitor, KiNativ profiling	biochemical	2 µM		22.6%
C[Si]1(C[C@H](CN)CC(=O)O)CCCC1	L-type calcium channel, rat	binding, radioligand binding		70 µM, with: [3H](-)-desmethoxyverapamil		0%
CCCCCCC#Cc1cncc(-c2nnc(SCc3cc([N+](=O)[O-])cc([N+](=O)[O-])c3)n2C)c1	mraY (Staphylococcus aureus, UniProt Q2FZ93)	cell-free assay, inhibitor		250 µM		49%
Cc1c(COc2cc(OCc3cccc(C#N)c3)c(CNC(CO)(CO)CO)cc2Cl)cccc1-c1cccc(OCCCCCC(=O)NO)c1	HDAC3	enzyme activity, inhibitor		1 µM		92.2%
COc1ccc(CN2CC(COc3ncc(C)s3)CC(F)(F)C2)cc1F (stereo not shown)	DRD4	ligand displacement, radioligand		10 µM		16%
